Assay results from different studies.
Compare with care: the assays were run in different laboratories.
Target: Transporter (Slc6a2, Rattus norvegicus, UniProt Q63380)

COC(=O)[C@H]1C(c2ccc(I)cc2)C[C@@H]2CC[C@H]1N2C (stereo partly shown) has an IC50 of 6.35 nM (reuptake; rat brain synaptosomes).
CCNCCc1c[nH]c2ccccc12 gave an IC50 of 3860 nM (transporter uptake, inhibitor, radiometric).
The EC50 of CNC(C)C(=O)c1ccc(Cl)cc1 (stereo not shown) is reported as 44 nM (substrate release, releaser; rat brain synaptosomes; with: [3H]MPP+).
The IC50 of CCC[C@H](C(=O)c1ccc2c(c1)OCO2)N1CCCC1 is reported as 726 nM (transporter uptake, inhibitor, radiometric).
For COC(=O)[C@H]1[C@@H](c2ccc(Cl)c(Cl)c2)C[C@@H]2CC[C@H]1N2CCOCCOCCOCCOCCOCCNC(=O)c1ccc2c(c1)C1(OC2=O)c2ccc(N3CCC3)cc2[Si](C)(C)c2cc(N3CCC3)ccc21, the Ki was 241 nM (ligand displacement, radioligand; cell membranes).
CCCN(CCC)CCc1c[nH]c2ccccc12 gave an IC50 of 3200 nM (transporter uptake, inhibitor, radiometric).
With CC1NCCOC1c1ccccc1 (stereo not shown) the IC50 was 1200 nM (inhibitor).
COC(=O)[C@H]1[C@@H](c2ccc(Cl)c(Cl)c2)C[C@@H]2CC[C@H]1N2C has a Ki of 7 nM (ligand displacement, radioligand; cell membranes).
For CNC(C)C(=O)c1ccccc1C (stereo not shown), the EC50 was 53 nM (releaser).
For c1ccc(CCN2CCCCC2)cc1, the Ki was 8830 nM (ligand displacement, radioligand).
With CNC(C)C(=O)c1cccc(C)c1 (stereo not shown) the EC50 was 27 nM (releaser).
CCCC(NCC)C(=O)c1ccc2c(c1)OCO2 (stereo not shown) gave an IC50 of 105 nM (transporter uptake, inhibitor, radiometric).
With CCN(CC)CCc1c[nH]c2ccccc12 the IC50 was over 10000 nM (transporter uptake, inhibitor, radiometric).
CNC(C)C(=O)c1ccccc1 (stereo not shown) has an EC50 of 21 to 25 nM (substrate release, releasing agent; rat brain synaptosomes).
CCC[C@H](C(=O)c1ccccc1)N1CCCC1 has an IC50 of 181 nM (transporter uptake, inhibitor, radiometric).
With COc1ccc2[nH]cc(CCN)c2c1 the IC50 was over 10000 nM (transporter uptake, inhibitor, radiometric).

Repeated from above:
For COC(=O)[C@H]1[C@@H](c2ccc(Cl)c(Cl)c2)C[C@@H]2CC[C@H]1N2CCOCCOCCOCCOCCOCCNC(=O)c1ccc2c(c1)C1(OC2=O)c2ccc(N3CCC3)cc2[Si](C)(C)c2cc(N3CCC3)ccc21, the Ki was 241 nM (ligand displacement, radioligand; cell membranes).
CCCN(CCC)CCc1c[nH]c2ccccc12 gave an IC50 of 3200 nM (transporter uptake, inhibitor, radiometric).
